# Measured values from different studies.
# Parts stem from different laboratories: compare values within a part only.

# Sample 1 — method: universal PBM; form: double-stranded DNA, one strand shown; matrix: in vitro; tested at: not given; reading: higher = stronger binding
# Target: Sal-like protein 4, full length isoform B (SALL4, Homo sapiens, UniProt Q9UJQ4-2, residues 1-616)
# Setting: 8-mer, flanks averaged, mean of replicates
Strand,E-score
GTCCGTCA,0.0257
AGGCCTAT,0.068
CTTTTTAA,0.265
ATAAAGTC,0.221
ACTTGTCA,-0.0746
TAGCAGAA,-0.0001
CAGTTCTA,0.0352
AAATGGAC,0.167
ACAAGTAT,0.244
GCGAAACC,-0.131
GCACAGGA,-0.211
TCAACTAA,0.176
ACGCATCT,-0.0467
CCAATGAC,0.0287
CGAATCTC,-0.127
CCGGAACA,-0.0791
AGGTTGCA,0.121
CGTAAGTA,0.121
ACCCTCTC,-0.141
CTACTAGA,0.0392

# Sample 2 — method: protein binding microarray; form: double-stranded DNA, one strand shown; matrix: in vitro; tested at: not given; reference: not given; reading: higher = stronger binding
# Target: Histone acetyltransferase KAT6A, winged helix 1, GST fusion (KAT6A, Homo sapiens, UniProt Q92794, residues 1-85)
# Setting: 8-mer, flanks averaged, mean of 2 arrays, mostly near background
# Target sequence (chain): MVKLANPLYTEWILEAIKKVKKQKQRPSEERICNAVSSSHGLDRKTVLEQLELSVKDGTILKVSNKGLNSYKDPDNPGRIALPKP
Strand,E-score
GTGGGAAA,-0.235
CTCCCAAG,-0.314
ACTACACC,-0.00877
CGGGGCAC,0.3
CTTCAGAC,-0.0664
CCGAAATC,0.0672
TCACAACA,-0.0816
CAGCGCTG,0.383
AGTCGCGC,0.264
ATACGGGC,0.272
AACCCTTG,0.0432
CAATGTGC,0.027
ATAATGAG,-0.221
TCAGCAGA,-0.264
ACAGAAGC,-0.0486
ACGTGCAA,-0.142
AATGAGAG,-0.22
AGTCGTCG,-0.0277
TGGCTAAA,0.00378
AACTAAGC,-0.0183
CACTTGTA,-0.158
AAAACGGA,0.0553
CACCTCTA,0.00713

# Sample 3 — method: protein-binding microarray; form: double-stranded DNA, one strand shown; matrix: in vitro; tested at: not given; reading: higher = stronger binding
# Target: Hepatocyte nuclear factor 3-beta, forkhead domain (FOXA2, Homo sapiens, UniProt Q9Y261, residues 142-269)
# Setting: k-mer, scored over probes, only values ≥0.25
# Residues (chain): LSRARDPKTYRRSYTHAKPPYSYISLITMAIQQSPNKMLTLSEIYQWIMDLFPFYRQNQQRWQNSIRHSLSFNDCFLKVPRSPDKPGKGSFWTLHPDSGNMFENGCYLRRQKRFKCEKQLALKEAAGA
Strand,E-score
GGTAATTA,0.266
ACGAATAT,0.267
TTAGCAAA,0.267
AACAAACA,0.398
ACAACCAT,0.404
CTTAACAC,0.295
CATATAAC,0.294
AGCAATAT,0.26
TACGGATA,0.339
AAGCATAT,0.313
CTTATTAC,0.26
ATACAACG,0.296
GACATACA,0.321
ATCAGTAA,0.321
TACCTATA,0.254
CATATAAA,0.324

# Sample 4 — method: RNA Bind-n-Seq; form: RNA; matrix: in vitro; tested at: 365 nM; reference: no-protein control; reading: higher = stronger binding
# Target: RNA binding protein fox-1 homolog 2, RRM domain, GST-SBP tag (RBFOX2, Homo sapiens, UniProt O43251-10, residues 100-194)
# Setting: natural RNA segment, single round, ends assumed
# Residues (chain): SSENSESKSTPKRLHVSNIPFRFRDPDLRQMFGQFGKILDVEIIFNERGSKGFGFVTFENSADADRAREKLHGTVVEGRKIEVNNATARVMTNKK
Strand,RBNS enrichment (R)
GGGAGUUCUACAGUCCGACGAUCGCUUUCUGGGGCAGACCCUUGUCCUCUGGGAUGAUGGGCACUGCUAUCCACAGUCUCUGCCAGUUGGUUUUAUUUGGAGGUUUGUGGGCUUUUUUUAAAAAAAAAAAGUCUGGAAUUCUCGGGUGCCAA,0.333
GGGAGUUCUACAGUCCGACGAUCGUAAAAGCAAGGGGCCAGGAUUGUGCUGGCAGCCAGGGAGACAGUAGUGCCUGCGGAAGUUGGCAGAGGAGGCCUUGGCAUGCUCGCAUCCAGGCAGUCAUGUGUGAUGGUGGAAUUCUCGGGUGCCAA,0.689
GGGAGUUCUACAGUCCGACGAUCCUUGCGAGCCCUGGCCAGGGGAGGAAGUGAGGCCCAGGCACCUGCUGCCCCUCGAGGGGGCCCUGCCUGCCGCGGGGCCUCCCCACAAGCCCCUCCCAAAGCGCCGGCCGUGGAAUUCUCGGGUGCCAA,0.322
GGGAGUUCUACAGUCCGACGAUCGAUCUACUGGCUUUUGCUUAUGAUUAAAAAACCUCAAAUCUAUCUUCUACAUUUUAAAAGGAAGAAAAAAAAGCAAAUAACUGAAUUAUUAUAGAAAACUUUAGACCUGUUGGAAUUCUCGGGUGCCAA,0.566
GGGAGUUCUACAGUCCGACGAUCAUAGUUUGUGUAUAUUGACAGAGCUCUUUUAUAACUAAAGCAAAUUUAAUUUUUUUGUACUAGAAAAAAAUUUGAACAUUUUAGUUCUUGGUUAUAAAAAUGUUAAUUCAUGGAAUUCUCGGGUGCCAA,0.932
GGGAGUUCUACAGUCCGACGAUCCCAGCACCAGCGGUCUUCCGGCUCCUCUGAGGGCUGCCACGUUGGGCGAGGGGAGCCAUGCCAAGGGUCCAGGCUGCUUUAGGCCAUCUGUGCCCCACUCAUCUGGGGACUGGAAUUCUCGGGUGCCAA,0.595
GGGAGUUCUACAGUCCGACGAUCUAUUUGAGUUUAUACAGACCUAAAUUUUAAAAUCUGUACAUAUAUUAUUUUGAUGUAUUAAGAUGAAUAUUGCUGAUUUAAAUUUUAUUUAUGCACAUACUUAAAGGACAUGGAAUUCUCGGGUGCCAA,0.517
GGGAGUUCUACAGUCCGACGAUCUCAUCACAAAUCAAUACGGUAUACAGAGUUAAAGUGGAAUGAGGUAAGAAGAUACAGCUACAGAAAAUAGUUGCGUGUAUGGGAGAACAGUCAUUGUAAUUGGGUAGUUUUGGAAUUCUCGGGUGCCAA,0.74
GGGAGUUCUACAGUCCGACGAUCGACCUUCAACCAUUGGACCAAGAAGUCAUUGCUUAUGGGUCUCAGGGGCCAUCAAACUGUCUACCUGAUGCUGUGGUUUCUGCUUAGAGAUCUGGAGGAGGGCAGCGGAGUGGAAUUCUCGGGUGCCAA,0.413
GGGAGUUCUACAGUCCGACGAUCCUUGGGACCUGGUUUGGGUGAGGGACCACCAGGGAGCCCAUGCUCUAUGGCUCCCUUCCCUUCUUACUGGUUCAGGGUAGCUUAUGCCUCAGGGUCAGAGCCCCUGAUCUUGGAAUUCUCGGGUGCCAA,0.171
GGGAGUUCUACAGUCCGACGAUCCUGGCUUUUAAAAUAUAGAUCAGAUCAAUUUACCCGACUUCAUGAAUAAUCCUAAAUUCUCUGGAAUAAAAAACUGAUUUCUUUGUUAAUUACUUGUACGAUGAAGGAUGUGGAAUUCUCGGGUGCCAA,0.401
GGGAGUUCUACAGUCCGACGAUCCCCUUCCAGAGGAAUAAGUUUGUUCCCUGACCACACUGGGGGACCCAGACUUCAACCCCACAGAGUCCUCUCUUACCACCCCCAUAUGCUUCGCCCCACUGCAUAGCUGUUGGAAUUCUCGGGUGCCAA,0.47

# Sample 5 — method: RNA Bind-n-Seq; form: RNA; matrix: in vitro; tested at: 200 nM; setting: whole 134-nt RNA, ends assumed; together with: 150 mM KCl; reference: input library; reading: higher = stronger binding
# Target: Ras GTPase-activating protein-binding protein 1, full length (G3BP1, Homo sapiens, UniProt Q13283)
# Chain of UniProt Q13283 (whole entry, looked up): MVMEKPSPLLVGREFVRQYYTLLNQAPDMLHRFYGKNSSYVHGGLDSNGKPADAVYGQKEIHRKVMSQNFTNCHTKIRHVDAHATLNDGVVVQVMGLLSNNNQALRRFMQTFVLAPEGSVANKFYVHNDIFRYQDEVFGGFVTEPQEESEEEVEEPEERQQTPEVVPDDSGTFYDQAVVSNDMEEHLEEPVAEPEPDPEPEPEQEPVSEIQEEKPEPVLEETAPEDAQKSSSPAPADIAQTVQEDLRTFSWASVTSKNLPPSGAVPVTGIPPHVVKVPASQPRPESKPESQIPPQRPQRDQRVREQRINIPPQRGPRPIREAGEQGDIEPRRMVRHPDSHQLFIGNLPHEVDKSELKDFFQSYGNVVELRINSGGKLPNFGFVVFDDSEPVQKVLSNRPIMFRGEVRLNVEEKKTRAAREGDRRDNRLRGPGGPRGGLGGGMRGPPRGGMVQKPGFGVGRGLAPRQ
Strand,log2 enrichment
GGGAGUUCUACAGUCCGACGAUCUCCUCAAGUCCUGUGCUACACAUCGUAUGUACCGAAUCGGAAGGAAGGAAGGAAAGUAUUAUGUUACGCCGUUCGGAUCUGCACUUCCAGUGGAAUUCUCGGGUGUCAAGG,-0.192
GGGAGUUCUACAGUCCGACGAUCACCAUGCAGGUGGGCAUCUUUGGGAAGUGGGGCAAGGGGGGGAUGGGGAGGGGGGUAACACUUUGGGAACAGGUGGUCCCAGGUCGUUUCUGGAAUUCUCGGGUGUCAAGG,1.2
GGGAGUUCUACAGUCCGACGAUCGCAGGAAGUAAAAACAAAUGGAAAUGCUUCGGAUAGUGGCAGGGGUGGGGGAAACUAAGGAAAGGGUGGGAUGGGAGUGGGUAAAGAGUUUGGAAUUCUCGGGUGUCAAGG,0.856
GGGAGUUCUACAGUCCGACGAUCAAGUCCUGUGCUACACAUCGUAUGUACCGAAUCGGUUUUUGGUUUUUUUGGUUUGGAAAGUAUUAUGUUACGCCGUUCGGAUCUGCACUUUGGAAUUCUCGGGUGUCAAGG,-1.33
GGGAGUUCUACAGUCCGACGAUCUGUUGGAGGGACGAUGGUCCGCUCCGGGCAGGACCCUUACGCCCGCAACAAGUUCAACCAGGUGGAGAGUGAUAAGCUUCGAAUGGACAGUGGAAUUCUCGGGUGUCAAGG,-1.68
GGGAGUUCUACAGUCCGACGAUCGUCCUGUGCUACACAUCGUAUGUACCGAAUCGGGGAAAAAAAGGGGUGGGGUUUGGGGAAAGUAUUAUGUUACGCCGUUCGGAUCUGCACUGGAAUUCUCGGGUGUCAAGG,0.19
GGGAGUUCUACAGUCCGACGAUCGUCCUGUGCUACACAUCGUAUGUACCGAAUCAAAUUUUUAAAUUUUUAAAUUUUUAAAAAAGUAUUAUGUUACGCCGUUCGGAUCUGCACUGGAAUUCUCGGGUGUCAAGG,-1.48
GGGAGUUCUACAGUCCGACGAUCGUCCUGUGCUACACAUCGUAUGUACCGAAUCGGAAAAAGGAAAAAGGGGAAAAAGGGGAAAGUAUUAUGUUACGCCGUUCGGAUCUGCACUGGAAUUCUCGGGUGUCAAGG,-0.305
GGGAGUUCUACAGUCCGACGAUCCCUCAAGUCCUGUGCUACACAUCGUAUGUACCGAAUCGGGUGGGGUGGGUGGAAAGUAUUAUGUUACGCCGUUCGGAUCUGCACUUCCAGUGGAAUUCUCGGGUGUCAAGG,1.38
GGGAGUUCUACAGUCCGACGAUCACCAUGCAGGUGGGCAUCUUUGGGAAGUGGGGCAAGGGGGGGGUAGGGAGGGGGGUAACACUUUGGGAACAGGUGGUCCCAGGUCGUUUCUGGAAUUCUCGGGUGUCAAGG,1.15

# A few entries again (sample 2):
Strand,E-score
GTGGGAAA,-0.235
CTCCCAAG,-0.314
ACTACACC,-0.00877
CGGGGCAC,0.3
CTTCAGAC,-0.0664
CCGAAATC,0.0672
TCACAACA,-0.0816
CAGCGCTG,0.383
AGTCGCGC,0.264
ATACGGGC,0.272
